Published values gathered from unrelated publications.
Lines come from different studies, so protocols differ. ± gives the spread as reported.

With `CCCC[C@H](NC(=O)CCOCCOCCNC(=O)CN1CCN(CC(=O)O)CCN(CC(=O)O)CCN(CC(=O)O)CC1)C(=O)N[C@H]1CC(=O)NCCCC[C@@H](C(N)=O)NC(=O)[C@H](Cc2c[nH]c3ccccc23)NC(=O)[C@H](CCCNC(=N)N)NC(=O)[C@@H](Cc2ccccc2)NC(=O)[C@H](Cc2c[nH]cn2)NC1=O` [gallium-68 labelled] the tissue uptake was 0.3 ± 0.1 %ID/g (C57BL/6J mice male B16-F10 tumour, intestine; 1 h post injection, unblocked).
For `N=C(N)NCc1ccc(C(=O)NCCCC[C@H](NC(=O)N[C@@H](CCC(=O)O)C(=O)O)C(=O)O)cc1[211At]`, the tissue uptake was 103 ± 24 %ID/g (SCID mouse, PC-3 xenografts, kidneys; 1 h).
For `O=C(c1ccc(F)cc1)C1CCN(C2Cc3c(cccc3OCC[18F])CC2O)CC1` (single isomer, unassigned; (-)), the tissue uptake was 0.593 %ID/g (Sprague-Dawley rat, male, cerebellum; 5 min post-injection).
`C[C@]12CC[C@H](OCC[18F])C[C@H]1CC[C@@H]1[C@@H]2CC[C@]2(C)[C@@H](c3ccc(=O)oc3)CC[C@]12O` has a tissue uptake of 3.21 ± 0.57 %ID/g (male BALB/c nude mice, HepG2 xenograft, kidney; intravenous, 7.4 MBq, 120 min).
With `N=C(N)NCc1ccc(C(=O)NCCCC[C@H](NC(=O)CCCCCCC(=O)NCCCC[C@H](NC(=O)N[C@@H](CCC(=O)O)C(=O)O)C(=O)O)C(=O)O)cc1[211At]` the tissue uptake was 0.84 ± 0.27 %ID/g (SCID mouse, PC-3 xenografts, heart; 1 h).
`CCNc1cc2[o+]c3cc(NCC)c(C)cc3c(-c3ccccc3C(=O)OCCOCC[18F])c2cc1C` has a tissue uptake of 1.74 ± 0.5 %ID/g (rat, mandibular gland; 15 min).
`CN[C@](C)(C[18F])C(=O)O` has a tissue uptake of 8.6 ± 1.9 %ID/g (SCID mouse MDA-MB-468 xenograft, spleen; 30 min, post injection).
`N=C(N)NCc1ccc(C(=O)NCCCC[C@H](NC(=O)CCCCCCC(=O)NCCCC[C@H](NC(=O)N[C@@H](CCC(=O)O)C(=O)O)C(=O)O)C(=O)O)cc1[131I]` has a tissue uptake of 5.16 ± 3.81 %ID/g (SCID mouse, PC-3 xenografts, liver; 1 h).
`O=C(O)CC[C@H](NC(=O)O[C@@H](CCCCNC(=O)c1ccc([18F])cc1)C(=O)O)C(=O)O` has a tissue uptake of 0.62 ± 0.27 %ID/g (mouse, PC-3 PIP/flu xenografts, large intestine; 60 min).
`COc1cc2ncnc(Oc3cccc(N[11C](=O)Nc4cc(C(C)(C)C(F)(F)F)on4)c3)c2cc1OC` has a tissue uptake of 1.31 ± 0.02 %ID/g (Balb/c nude mouse, female, A375 melanoma xenograft, blood; 6.6 MBq, 60 min).
`C=Cc1cc(O)cc2nc(-c3ccc(O)c([76Br])c3)oc12` has a tissue uptake of 0.09 ± 0.02 %ID/g (female C57BL/6 mouse, spleen; 1 h, high dose, with: estradiol 20 µg blocking).
`N=C(N)NCc1ccc(C(=O)NCCCC[C@H](NC(=O)N[C@@H](CCC(=O)O)C(=O)O)C(=O)O)cc1[131I]` gave a tissue uptake of 0.05 ± 0.01 %ID/g (SCID mouse, PC-3 xenografts, lungs; 21 h).

Repeated from above:
`N=C(N)NCc1ccc(C(=O)NCCCC[C@H](NC(=O)CCCCCCC(=O)NCCCC[C@H](NC(=O)N[C@@H](CCC(=O)O)C(=O)O)C(=O)O)C(=O)O)cc1[131I]` has a tissue uptake of 5.16 ± 3.81 %ID/g (SCID mouse, PC-3 xenografts, liver; 1 h).
